Measurements gathered from unrelated publications.
Protocols differ between the studies behind these lines. Values joined by “and” are separate records of one study, mostly repeats; a detail may differ. Numbers after ± are the reported error.
UniProt O94956, sequence (whole entry, looked up): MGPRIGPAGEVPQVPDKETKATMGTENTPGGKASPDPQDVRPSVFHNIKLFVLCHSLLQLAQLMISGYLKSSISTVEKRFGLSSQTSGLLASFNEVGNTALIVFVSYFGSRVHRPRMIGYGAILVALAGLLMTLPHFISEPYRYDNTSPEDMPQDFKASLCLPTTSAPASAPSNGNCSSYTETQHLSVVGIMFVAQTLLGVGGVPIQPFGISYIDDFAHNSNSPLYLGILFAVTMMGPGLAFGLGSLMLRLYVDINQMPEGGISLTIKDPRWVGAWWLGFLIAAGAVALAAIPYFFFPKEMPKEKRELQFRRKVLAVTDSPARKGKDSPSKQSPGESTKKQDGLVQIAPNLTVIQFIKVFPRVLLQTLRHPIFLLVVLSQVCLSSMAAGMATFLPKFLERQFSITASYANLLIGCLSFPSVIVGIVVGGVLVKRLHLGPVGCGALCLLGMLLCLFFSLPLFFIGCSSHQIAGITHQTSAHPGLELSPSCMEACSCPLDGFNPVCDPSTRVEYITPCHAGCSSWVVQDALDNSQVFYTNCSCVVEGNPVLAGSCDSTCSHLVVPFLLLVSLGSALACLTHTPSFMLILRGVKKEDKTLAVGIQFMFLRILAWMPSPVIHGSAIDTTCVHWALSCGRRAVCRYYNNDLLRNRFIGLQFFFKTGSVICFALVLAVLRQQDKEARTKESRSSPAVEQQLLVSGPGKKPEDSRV
UniProt P08684, sequence (whole entry, looked up): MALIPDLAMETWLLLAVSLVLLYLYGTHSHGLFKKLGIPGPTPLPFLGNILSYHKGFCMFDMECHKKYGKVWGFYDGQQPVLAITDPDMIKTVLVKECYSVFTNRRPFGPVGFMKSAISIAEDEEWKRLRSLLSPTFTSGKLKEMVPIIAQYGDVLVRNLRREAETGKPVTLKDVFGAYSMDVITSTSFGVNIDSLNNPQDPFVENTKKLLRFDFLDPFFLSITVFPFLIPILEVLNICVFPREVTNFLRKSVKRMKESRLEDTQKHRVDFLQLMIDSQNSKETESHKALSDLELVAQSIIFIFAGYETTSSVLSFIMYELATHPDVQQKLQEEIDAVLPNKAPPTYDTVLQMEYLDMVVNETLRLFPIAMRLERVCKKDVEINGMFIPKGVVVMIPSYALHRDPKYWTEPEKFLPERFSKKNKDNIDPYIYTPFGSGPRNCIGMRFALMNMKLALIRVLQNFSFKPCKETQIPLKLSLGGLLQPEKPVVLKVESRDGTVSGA
UniProt P05181, sequence (whole entry, looked up): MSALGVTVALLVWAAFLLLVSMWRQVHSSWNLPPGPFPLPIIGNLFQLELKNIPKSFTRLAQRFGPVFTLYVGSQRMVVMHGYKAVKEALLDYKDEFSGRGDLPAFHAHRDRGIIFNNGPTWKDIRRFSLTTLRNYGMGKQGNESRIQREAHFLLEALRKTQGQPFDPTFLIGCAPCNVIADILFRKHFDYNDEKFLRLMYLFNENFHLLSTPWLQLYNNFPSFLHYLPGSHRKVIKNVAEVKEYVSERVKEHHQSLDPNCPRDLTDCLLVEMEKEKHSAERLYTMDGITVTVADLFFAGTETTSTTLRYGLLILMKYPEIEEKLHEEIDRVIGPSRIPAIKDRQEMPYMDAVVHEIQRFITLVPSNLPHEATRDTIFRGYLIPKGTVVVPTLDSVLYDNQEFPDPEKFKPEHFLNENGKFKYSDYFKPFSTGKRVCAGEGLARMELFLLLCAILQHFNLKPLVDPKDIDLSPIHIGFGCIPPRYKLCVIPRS

SMILES | target or system | assay | system | setting | how to read | quantity | value
CC(C)CC(=O)OC[C@H]1O[C@@](C#N)(c2ccc3c(N)ncnn23)[C@H](O)[C@@H]1O | Cytochrome P450 2E1 (CYP2E1, Homo sapiens, UniProt P05181) | metabolic stability | recombinant enzyme | 1 µM | – | half-life | > 6.55 h
CC(=O)N1CCC(C(=O)N2CCN3C(=O)c4cc(-c5ccccc5)ccc4NC(=O)C3C2)CC1 (centres unmarked) | Salmonella typhimurium | – | TA98 | 5.0 µg/plate | reference: vehicle | fold increase in revertants | 1.1
COc1ccc2c(c1OC)C(=O)c1c(cc(C)c(O)c1OC)C2=O | HK-2 co-cultured with HepaRG | MTT | – | 16.67 µM, 24 h | reference: untreated control | cell viability | 98.3 ± 10.3%
OC(CCN1CC=C(c2ccc(F)cc2)CC1)c1ccc(F)c2ccccc12 (centres unmarked) | Salmonella typhimurium | genotoxicity, SOS/umu test | TA1535/pSK1002 | 0.031 mg/mL, 4 h, with S9, full range | – | induction factor | 1.3
COc1cc2c(Oc3ccc4[nH]c(C)cc4c3F)ccnc2cc1OCC1(N)CC1 | – | – | paediatric recurrent refractory sarcoma | 8 mg | – | Vomiting incidence | 0%
O=[N+]([O-])c1ccc(N2CCN(CCC(O)c3ccc(F)cc3)CC2)c(C(F)(F)F)c1 (centres unmarked) | Salmonella typhimurium | SOS response, SOS/umu test | TA1535/pSK1002, TGA medium | 0.000488 mg/mL, 4 h, with: 10% rat liver S9 | reference: untreated | induction factor | 0.8
CO[C@H]1C[C@@H]2CC[C@@H](C)[C@@](O)(O2)C(=O)C(=O)N2CCCC[C@H]2C(=O)O[C@H]([C@H](C)C[C@@H]2CC[C@@H](OC(=O)NCCOCCOCCOCCOCCOCCOCCOCCOCCC(=O)N3CCc4cc(Cn5nc(-c6ccc7oc(N)nc7c6)c6c(N)ncnc65)ccc4C3)[C@H](OC)C2)C[C@@H](O)[C@H](C)/C=C(\C)[C@@H](O)[C@@H](OC)C(=O)[C@H](C)C[C@H](C)/C=C/C=C/C=C/1C | – | – | patients with advanced solid tumours | intravenous, 12 mg weekly, grade 3 or higher | – | AE leading to dose interruption | 25%
C[C@]1(CO)Cc2ncn(-c3ccc(C#N)c(Cl)c3)c2C(=O)O1 | – | – | human, Chinese | 3 mg single dose | – | subjects with drug-related dizziness | 0%
COc1cc2ncnc(Nc3cccc(Cl)c3)c2cc1OC | HaCaT | – | – | 33.33 µM, 60 h | – | viability | 26.9% and 14.8% and 13.7%
CN/C(=N\[N+](=O)[O-])NCc1cnc(Cl)s1 | – | – | soil | 56 days, nominal 0.12 | – | concentration | 0.05 mg/kg dry soil
Cc1cc2c(c(O)c1O)C(=O)c1c(O)cc(O)cc1C2=O | HepaRG co-cultured with HK-2 | MTT | – | 133.33 µM, 24 h | reference: untreated control | cell viability | 54.1 ± 6.07%
C=CCN1CC[C@]23c4c5ccc(O)c4O[C@H]2C(=O)CC[C@@]3(O)[C@H]1C5 | MCF7 | MTT | – | 100 µM, 72 h, 10% FBS | – | viability | 99%
[Cl-].[Cl-].[Pt+2].[Ru+2].c1ccc(-c2nc3cc4ccccc4cc3nc2-c2ccccn2)nc1.c1cnc2c(c1)ccc1cccnc12.c1cnc2c(c1)ccc1cccnc12 | Danio rerio | – | embryos | 15 µM, 0 h | – | survival rate | 100%
CC1(C)C(/C=C(\Cl)C(F)(F)F)C1C(=O)OC(C#N)c1cccc(Oc2ccccc2)c1 (centres unmarked) | human CYP3A5 | IVIVE from expressed enzymes | human, liver, in vivo scaled | age-specific | – | enzyme contribution to CLint | 0.05%
Cc1ncc2n1-c1ccc(Cl)cc1C(c1ccccc1F)=NC2 | Cytochrome P450 3A4 (CYP3A4, Homo sapiens, UniProt P08684) | – | human, plasma | oral, 2 mg, day 1, alone, arithmetic mean | – | half-life | 3.25 h
COc1cccc(-c2n[nH]c(SCc3ccccn3)n2)c1OC | Salmonella typhimurium | Ames test, preincubation | TA1537 | 1.0 mg/plate, with rat liver S9 | – | revertant colonies per plate | 7
Cc1cc(C(=O)NC(C)(C)COc2cccc3c2C(N)=NS(=O)(=O)N3)cc(C)n1 | Salmonella typhimurium | Ames test, initial | TA1537 | 1.50 µg/plate, with: rat liver S9 | reference: solvent control | revertant ratio | 0.8
CCc1ccc(CC/C=C/c2ccc3c(c2)C(=O)CC3)cc1 | – | – | Sprague-Dawley rat, female, blood | oral, 30 mg/kg/day, 14 days | – | mean platelet volume | 10.7 fL
O=c1ccc2ccccc2o1 | NHEK | cell count | – | concentration not given, 24 h, XBP1 panel | – | chance response | 0.02%
CC(=O)OC[C@H]1O[C@@H](Oc2cc(O)cc3cc4oc(C)cc(=O)c4c(O)c23)[C@H](O)[C@@H](O)[C@@H]1O | HK-2 co-cultured with HepaRG | MTT | – | 266.67 µM, 24 h | reference: untreated control | cell viability | 142 ± 21.1%
COc1ccc2cc1Oc1ccc(cc1)C[C@H]1c3cc(c(OC)cc3CCN1C)Oc1c(OC)c(OC)cc3c1[C@H](C2)N(C)CC3 | Solute carrier organic anion transporter family member 2B1 (SLCO2B1, Homo sapiens, UniProt O94956) | transport, inhibitor | – | 10 µM, with: ES | – | inhibition | -22.9%
CC(C)=CC1C(C(=O)OC(C#N)c2cccc(Oc3ccccc3)c2)C1(C)C (centres unmarked) | human microsomal CES1 | IVIVE from expressed enzymes | human, 6 months old | – | reference: total hepatic CLint in vivo | relative enzyme contribution | 53.7%
O=C1c2ccccc2C(=O)c2ccccc21 | HK-2 co-cultured with HepaRG | MTT | – | 16.67 µM, 24 h | reference: untreated control | viability | 119 ± 12.6%

Repeated from above:
SMILES | target or system | assay | system | setting | how to read | quantity | value
Cc1cc(C(=O)NC(C)(C)COc2cccc3c2C(N)=NS(=O)(=O)N3)cc(C)n1 | Salmonella typhimurium | Ames test, initial | TA1537 | 1.50 µg/plate, with: rat liver S9 | reference: solvent control | revertant ratio | 0.8
CCc1ccc(CC/C=C/c2ccc3c(c2)C(=O)CC3)cc1 | – | – | Sprague-Dawley rat, female, blood | oral, 30 mg/kg/day, 14 days | – | mean platelet volume | 10.7 fL
